Published values from different studies.
Values joined by “and” are separate records of one study, mostly repeats; a detail may differ. Numbers after ± are the reported error.

SMILES	cell line	test	conditions	how to read	measurement	result
O=c1[nH]nc(OCCCc2ccc(Cl)cc2)c(NCc2cccnc2)c1Br	HEK-293T	RNA-seq GSEA, refers to: HALLMARK_TGF_BETA_SIGNALING	concentration not given	direction not given	normalized enrichment score	1.27
C[C@H](CCC(=O)NCCS(=O)(=O)O)[C@H]1CC[C@H]2[C@@H]3CC[C@@H]4C[C@H](O)CC[C@]4(C)[C@H]3CC[C@]12C	human PKD renal epithelial cells	cell counting	20 µM, 24 h	baseline: untreated	proliferation increase	36%
CCc1c(-c2ccccc2)c(-c2ccccc2)nn1-c1ccccc1-c1cccc(OCC(=O)O)c1	mouse bone marrow macrophages	osteoclast differentiation, inhibitor, TRAP staining	0.3 µM, together with: M-CSF and RANKL		normalized response	85.3% and 73.2% and 71.6% and 81.2% and 69.2% and 55.5%
CC(C)c1ccc(C2C(C#N)=C3N=C(N)c4ccccc4N3C3=C2C(=O)CCC3)cc1 (stereo not drawn)	BV-2	phagocytosis, high-content imaging	geometric mean, together with: pHrodo-myelin uptake		EC50	20.8 µM
O=C(/C=C/C=C/C=C/C1CCCCC1)NC1=C[C@@](O)(/C=C/C=C/C=C/C(=O)NC2=C(O)CCC2=O)[C@@H]2O[C@@H]2C1=O	MEL-JUSO	CellTiter-Glo	78 h		GI50	24 µM
Cc1[nH]nc2ccc(-c3cncc(OC[C@@H](N)Cc4ccccc4)c3)cc12	hiPSC-derived cardiomyocytes (iCell)	impedance (xCELLigence Cardio)	concentration not given, 2 h	baseline: control	beat rate	110%
CC(=O)c1nn(-c2ccc(Cl)cc2)/c(=N/N=C(\C)c2ccc(NC(=O)c3ccc(C)cc3)cc2)s1	MCF7		0.312 µM		viability	59.8%
Cl.Cl.NCCNS(=O)(=O)c1ccc(Cl)c2ccncc12	SK-OV-3	ATP	0.1 µM, 4 days, 3D U-bottom low-attachment	baseline: untreated	relative cell number	109%
CCn1cc(-c2cc(Cn3ccoc3=N)cc3c2CCN([C@@H](C)c2cc(OC)ccn2)C3=O)c(C(F)(F)F)n1	Caov-3	cell growth, inhibitor	120 h		EC50	0.00695 µM
OCc1ccc(-c2nn(Cc3cccc(F)c3)c3ccccc23)o1	RBE	cell viability, CellTiter-Glo			IC50	1.18 µM
O=[N+]([O-])c1cc(I)c(O)c(C=NNc2ccccc2)c1	HCT-116	annexin V	IC50		late apoptotic or dead cells	36.4%
COc1c(Cl)cc2c([nH]c3cnccc32)c1NC(=O)c1cccnc1C	hiPSC-derived cardiomyocytes (iCell)	impedance	concentration not given, 24 h	baseline: control	cell index	98.5%
Cc1c(C)c2c(c(C)c1O)CCC(C)(COc1ccc(CC3SC(=O)NC3=O)cc1)O2 (stereo not drawn)	HepG2	mitochondrial ROS	1 h, distribution mode 1		point of departure	0.0741 µM
Cc1cnc(NC2CCOCC2)nc1-n1cnc(C(=O)NC(CN)c2cc(F)cc(Cl)c2)c1 (stereo not drawn)	Rec1	flow cytometry	1 µM, 48 h		G1 phase cells	48.2%
Cc1ccc(CNC(=O)Cn2cc(CSc3nc4ccccc4[nH]3)nn2)cc1	Caco-2	MTT	250 ppm		viability	10.4%
NC(=O)NOCCCCCCCCCCCCCCCC[P+](c1ccccc1)(c1ccccc1)c1ccccc1.O=C([O-])C(F)(F)F	HCT-116	cell growth, live-cell imaging	0.6 µM, control at 90% confluence		cell confluence	33.7%
COc1ccc(-n2nc(C(C)=O)s/c2=N\N=C(/C)c2ccc(NC(=O)c3ccc(C)cc3)cc2)cc1	HepG2		5 µM		toxicity	95.8%
CCN(Cc1ccc(F)cc1)c1ccc(CO)c(Cl)c1	RBE	cell viability, CellTiter-Glo			IC50	0.16 µM
NC(=O)NOCCCCCCCCCCCCCC[P+](c1ccccc1)(c1ccccc1)c1ccccc1.O=C([O-])C(F)(F)F	HCT-116	cell growth, live-cell imaging	0.5 µM, control at 90% confluence		cell confluence	80.4%
Cc1cccc(-c2[nH]c(CNc3ccccc3F)nc2-c2ccc3ncnn3c2)n1	MM1.S pomalidomide-resistant	XTT	2 µM		viability	50% and 41% and 30%
CNCc1ccc(-c2nn(Cc3ccccc3)c3ccccc23)o1	RBE	cell viability, CellTiter-Glo			IC50	21.2 µM
CC/C(=N\NC(=O)NCc1cccc(O)c1)c1ccc(O)c(C)c1O	SK-OV-3	Western blot, refers to: LATS	10 µM, 3 h, 3D gellan gum culture, unit not given	baseline: β-actin	protein level	0.77 ± 0.55
CC(C)NCC(O)c1ccc(O)c(O)c1 (stereo not drawn)	mouse ventricular cardiomyocytes		dose not given, 0.431 s		sarcomere length	1.72 µm
CC(C)(c1ccc(O)cc1)c1ccc(O)cc1	HepG2 spheroids	Hoechst flow cytometry	10 µM, 24 h		S phase cells	7.85 ± 1.58%
COc1cc(/C=C/C(=O)N2CCC=CC2=O)cc(OC)c1OC	MDA-MB-468	quantitative RT-PCR, refers to: FH	30 µM, 8 h	baseline: untreated	mRNA level	79 ± 0.4%
NC(=O)NOCCCCCCCCCCCC[P+](c1ccccc1)(c1ccccc1)c1ccccc1.O=C([O-])C(F)(F)F	HCT-116	cell growth, live-cell imaging	2 µM, control at 90% confluence		cell confluence	25.6 ± 3.87%

SMILES	cell line	test	conditions	how to read	measurement	result
OCc1ccc(-c2nn(CC3CCCCC3)c3ccccc23)o1	RBE	cell viability, CellTiter-Glo			IC50	16.3 µM
CC(=O)O[C@H]1C(=O)[C@@]2(C)[C@H]([C@H](OC(=O)c3ccccc3)[C@]3(O)C[C@H](OC(=O)[C@H](O)[C@@H](NC(=O)c4ccccc4)c4ccccc4)C(C)=C1C3(C)C)[C@]1(OC(C)=O)CO[C@@H]1C[C@@H]2O	COS-7 and PC-3			baseline: IC50 COS-7 over PC-3	selectivity index	41.3
NC(=O)NOCCCCCCCCCCCCCCCCCCCC[P+](c1ccccc1)(c1ccccc1)c1ccccc1.O=C([O-])C(F)(F)F	HCT-116	cell growth, live-cell imaging	0.03 µM, control at 90% confluence		cell confluence	92.7 ± 1.63%
Cc1sc2c(c1C)C(c1ccc(Cl)cc1)=N[C@@H](CC(=O)NCCCCCCCCNC(=O)COc1cccc3c1C(=O)N(C1CCC(=O)NC1=O)C3=O)c1nnc(C)n1-2 (stereo partly drawn)	4T1	Annexin V-FITC/PI flow cytometry	concentration not given		late apoptotic and necrotic cells	10.4% and 8.89% and 10.7%
NC(=O)NO	HCT-116	cell growth, live-cell imaging	1000 µM, control at 90% confluence		cell confluence	5.4 ± 1.02%
Cc1cccc(Cn2nc(-c3ccc(CO)o3)c3ccccc32)c1	RBE	cell viability, CellTiter-Glo			IC50	2.51 µM
Clc1nc(NCc2ccco2)c2[nH]cnc2n1	iPSC-derived cardiomyocytes	RNA-seq, refers to: chrX exon ending 63510079	unit not given	baseline: DMSO minus compound	ΔPSI	-0.206
CNC(=O)c1c(F)cccc1Nc1nc(Nc2cc3c(cc2OC)CCN3C(=O)CN(C)C)nc2[nH]ccc12	hiPSC-derived cardiomyocytes (iCell)	impedance (xCELLigence Cardio)	concentration not given, 2 h	baseline: control	beat rate	79.8%
OCc1ccc(N(Cc2ccc(F)cc2)Cc2ccc(F)cc2)cc1Cl	RBE	cell viability, CellTiter-Glo			IC50	2.6 µM
CCn1cc(-c2cc(Cn3ccnc3)cc3c2CCN([C@H](c2cc(OC)ccn2)C2CC2)C3=O)c(C(F)(F)F)n1	HEC-1-A	cell growth, inhibitor	120 h		EC50	> 30 µM
Cn1c(Nc2nc3ccc(C(F)(F)F)cc3s2)nc2cc(C(=O)NCCOCCO)ccc21	SH-SY5Y	RNA-seq, refers to: UBASH3B mRNA	5 µM, 5 h	baseline: untreated cells	fold change	3.02
Nc1ccn([C@@H]2O[C@H](CO)[C@@H](O)C2(F)F)c(=O)n1	CFPAC	cell viability, MTT	mutant KRAS liver metastasis		IC50	0.097 µM
C=Cc1c2[n-]c(c1C)/C=c1\[n-]/c(c(C)c1C=C)=C\c1[n-]c(c(CCC(=O)O)c1C)/C=c1\[n-]c(c(C)c1CCC(=O)O)=C2.[Sn+4]	SH-SY5Y	RNA-seq, refers to: FOSL1 mRNA	5 µM, 5 h	baseline: untreated cells	fold change	2.98
CCN(Cc1c(F)cccc1Cl)c1ccc(CO)c(Cl)c1	RBE	cell viability, CellTiter-Glo			IC50	0.14 µM
C=CC1=C(C)c2cc3[n-]c(cc4nc(cc5[n-]c(cc1n2)c(C)c5C=C)C(C)=C4CCC(=O)O)c(CCC(=O)O)c3C.[Zn+2]	SH-SY5Y	RNA-seq, refers to: EVA1A mRNA	5 µM, 5 h	baseline: untreated cells	fold change	1.94
COc1cc(Oc2ccnc3cc(OC)c(OC)cc23)ccc1NC(=O)NC(C)c1nccs1 (stereo not drawn)	hiPSC-derived cardiomyocytes (iCell)	impedance	concentration not given, 24 h	baseline: control	cell index	102%
Cc1nn(-c2ccccc2Br)c(C)c1C(=O)Nc1ccc2ccccc2n1	Wnt-HEK293	Wnt/β-catenin signalling, inhibitor, luciferase reporter	1 µM		inhibition	> 70%
Cc1ccc(-n2c(=O)[nH]cc(C(=O)N3CCc4ccccc43)c2=O)cc1C	BV-2	refers to: caspase-8	30 nM, together with: high glucose	baseline: high glucose	protein level	decreased
C[C@H]1[C@@H](O)O[C@@H]2O[C@@]3(C)CC[C@H]4[C@H](C)CC[C@@H]1[C@@]24OO3	THP-1	annexin V/PI flow cytometry, refers to: annexin V+/PI+	3.2 µM, 24 h		late apoptotic cells	1.6%
CCN(CC)CCCC(C)Nc1ccnc2cc(Cl)ccc12 (stereo not drawn)	hiPSC-derived cardiomyocytes	sodium current, perforated patch clamp	5 µM	baseline: initial current	relative peak current	1.04 and 0.82 and 0.97 and 0.95 and 0.75
Cn1cc(-c2ccc(-c3cncc(Cl)c3N3CCC4(CCNC4=O)CC3)cc2)cn1	COLO 205	gene expression, microarray, refers to: ARHGEF39 (C9orf100) mRNA	concentration not given, 2 h	baseline: untreated cells	log2 fold change	-2.46
O=C(C[C@@H](C(F)F)n1ccc(F)n1)N1CCC(O)(Cn2cnc3c(cnn3-c3ccc(F)cc3)c2=O)CC1	CHP-212 resistant	annexin V/PI flow cytometry	0.3 µM, 48 h		late apoptotic cells	7.75% and 6.65% and 6%
COc1cnc2cccc(N3CCc4c(cc(Cn5ccnc5C)cc4-c4cn(C)nc4C(F)(F)F)C3=O)c2c1	BT-474	cell growth, inhibitor	120 h		EC50	21.9 µM
COc1cc(C2C3=C(COC3=O)N(CCO)c3cc4c(cc32)CCC4)cc(OC)c1OC (stereo not drawn)	4T1	colony formation	0.1 to 0.5 µM, 6 to 10 days		clonogenic growth	inhibited
Nc1cccc2c1C(=O)N(C1CCC(=O)NC1=O)C2=O (stereo not drawn)	RPMI-8226	flow cytometry, refers to: CD21	concentration not given	baseline: comparator compound alone	surface marker level	260%
